# Measured values gathered from unrelated publications.
# Numbers after ± are the reported error.
# Ugcg: Ceramide glucosyltransferase (Ugcg, Mus musculus, UniProt O88693)
# Sequence of UniProt O88693 (whole entry, looked up): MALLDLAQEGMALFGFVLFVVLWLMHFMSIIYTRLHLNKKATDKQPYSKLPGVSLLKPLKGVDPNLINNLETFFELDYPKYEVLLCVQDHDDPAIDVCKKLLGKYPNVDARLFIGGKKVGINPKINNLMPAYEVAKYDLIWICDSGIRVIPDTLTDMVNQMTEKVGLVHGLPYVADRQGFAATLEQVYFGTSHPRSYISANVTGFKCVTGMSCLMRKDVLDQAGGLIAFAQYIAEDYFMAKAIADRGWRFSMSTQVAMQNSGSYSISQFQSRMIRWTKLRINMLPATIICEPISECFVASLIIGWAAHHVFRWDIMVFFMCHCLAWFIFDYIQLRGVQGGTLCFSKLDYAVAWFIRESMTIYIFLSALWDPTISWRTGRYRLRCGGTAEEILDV
# Sequence of UniProt P06239 (whole entry, looked up): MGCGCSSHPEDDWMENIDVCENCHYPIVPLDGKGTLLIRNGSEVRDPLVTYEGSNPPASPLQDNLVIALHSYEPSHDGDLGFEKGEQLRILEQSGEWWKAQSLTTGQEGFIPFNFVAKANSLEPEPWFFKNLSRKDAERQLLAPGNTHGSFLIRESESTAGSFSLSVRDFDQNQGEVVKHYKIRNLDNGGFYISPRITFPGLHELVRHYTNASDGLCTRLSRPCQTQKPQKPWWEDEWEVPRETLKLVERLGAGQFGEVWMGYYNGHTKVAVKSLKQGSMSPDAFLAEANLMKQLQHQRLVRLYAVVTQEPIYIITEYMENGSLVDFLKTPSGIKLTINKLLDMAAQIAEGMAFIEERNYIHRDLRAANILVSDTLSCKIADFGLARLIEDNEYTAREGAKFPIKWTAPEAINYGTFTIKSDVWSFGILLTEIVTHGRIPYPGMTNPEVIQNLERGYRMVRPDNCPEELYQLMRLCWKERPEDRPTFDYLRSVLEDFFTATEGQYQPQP
# Sequence of UniProt P30837 (whole entry, looked up): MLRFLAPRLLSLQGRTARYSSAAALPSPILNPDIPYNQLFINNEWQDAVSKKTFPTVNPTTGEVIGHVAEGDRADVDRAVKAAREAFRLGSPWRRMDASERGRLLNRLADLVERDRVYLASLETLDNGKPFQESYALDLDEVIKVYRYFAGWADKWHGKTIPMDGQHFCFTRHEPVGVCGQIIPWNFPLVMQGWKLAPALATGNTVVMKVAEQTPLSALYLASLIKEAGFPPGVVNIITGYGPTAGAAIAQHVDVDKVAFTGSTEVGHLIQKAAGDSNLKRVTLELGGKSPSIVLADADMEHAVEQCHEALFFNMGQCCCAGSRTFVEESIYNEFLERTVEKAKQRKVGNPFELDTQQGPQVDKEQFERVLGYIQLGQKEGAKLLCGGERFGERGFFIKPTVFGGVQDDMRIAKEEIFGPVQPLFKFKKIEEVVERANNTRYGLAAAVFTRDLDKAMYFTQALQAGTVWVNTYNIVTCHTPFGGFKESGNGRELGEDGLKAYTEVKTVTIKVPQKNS
# Sequence of UniProt P07332 (whole entry, looked up): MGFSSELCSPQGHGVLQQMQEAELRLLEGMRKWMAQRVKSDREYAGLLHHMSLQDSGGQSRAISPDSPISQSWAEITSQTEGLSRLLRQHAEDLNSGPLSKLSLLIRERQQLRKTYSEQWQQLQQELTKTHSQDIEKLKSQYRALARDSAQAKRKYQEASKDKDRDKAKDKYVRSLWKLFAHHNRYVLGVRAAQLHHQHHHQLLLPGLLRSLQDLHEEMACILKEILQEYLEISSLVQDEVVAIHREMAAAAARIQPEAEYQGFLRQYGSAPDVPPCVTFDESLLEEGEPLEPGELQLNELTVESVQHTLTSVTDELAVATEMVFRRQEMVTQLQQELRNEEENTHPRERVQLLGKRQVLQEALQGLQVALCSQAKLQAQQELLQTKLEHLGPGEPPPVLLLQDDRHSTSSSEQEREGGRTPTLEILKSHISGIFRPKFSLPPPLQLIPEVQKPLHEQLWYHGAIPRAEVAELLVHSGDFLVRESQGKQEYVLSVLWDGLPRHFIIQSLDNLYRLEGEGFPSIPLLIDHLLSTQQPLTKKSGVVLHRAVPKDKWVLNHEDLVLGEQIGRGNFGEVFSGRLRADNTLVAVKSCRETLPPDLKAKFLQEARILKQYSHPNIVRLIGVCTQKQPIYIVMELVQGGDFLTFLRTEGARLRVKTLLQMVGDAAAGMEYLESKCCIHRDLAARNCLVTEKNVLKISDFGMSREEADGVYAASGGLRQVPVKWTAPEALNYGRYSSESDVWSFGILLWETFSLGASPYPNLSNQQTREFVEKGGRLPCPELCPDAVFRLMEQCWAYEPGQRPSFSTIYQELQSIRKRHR
# Sequence of UniProt P35462 (whole entry, looked up): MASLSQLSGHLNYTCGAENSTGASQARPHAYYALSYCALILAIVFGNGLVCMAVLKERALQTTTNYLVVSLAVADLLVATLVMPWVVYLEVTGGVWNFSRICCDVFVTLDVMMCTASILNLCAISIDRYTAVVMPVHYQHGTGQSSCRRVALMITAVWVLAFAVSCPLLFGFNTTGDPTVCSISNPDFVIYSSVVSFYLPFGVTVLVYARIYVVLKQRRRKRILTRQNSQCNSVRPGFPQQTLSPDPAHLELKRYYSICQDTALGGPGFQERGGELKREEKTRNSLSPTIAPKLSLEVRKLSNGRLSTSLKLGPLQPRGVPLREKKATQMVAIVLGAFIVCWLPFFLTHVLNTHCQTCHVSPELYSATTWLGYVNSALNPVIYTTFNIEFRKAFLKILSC
# Sequence of UniProt Q16620 (whole entry, looked up): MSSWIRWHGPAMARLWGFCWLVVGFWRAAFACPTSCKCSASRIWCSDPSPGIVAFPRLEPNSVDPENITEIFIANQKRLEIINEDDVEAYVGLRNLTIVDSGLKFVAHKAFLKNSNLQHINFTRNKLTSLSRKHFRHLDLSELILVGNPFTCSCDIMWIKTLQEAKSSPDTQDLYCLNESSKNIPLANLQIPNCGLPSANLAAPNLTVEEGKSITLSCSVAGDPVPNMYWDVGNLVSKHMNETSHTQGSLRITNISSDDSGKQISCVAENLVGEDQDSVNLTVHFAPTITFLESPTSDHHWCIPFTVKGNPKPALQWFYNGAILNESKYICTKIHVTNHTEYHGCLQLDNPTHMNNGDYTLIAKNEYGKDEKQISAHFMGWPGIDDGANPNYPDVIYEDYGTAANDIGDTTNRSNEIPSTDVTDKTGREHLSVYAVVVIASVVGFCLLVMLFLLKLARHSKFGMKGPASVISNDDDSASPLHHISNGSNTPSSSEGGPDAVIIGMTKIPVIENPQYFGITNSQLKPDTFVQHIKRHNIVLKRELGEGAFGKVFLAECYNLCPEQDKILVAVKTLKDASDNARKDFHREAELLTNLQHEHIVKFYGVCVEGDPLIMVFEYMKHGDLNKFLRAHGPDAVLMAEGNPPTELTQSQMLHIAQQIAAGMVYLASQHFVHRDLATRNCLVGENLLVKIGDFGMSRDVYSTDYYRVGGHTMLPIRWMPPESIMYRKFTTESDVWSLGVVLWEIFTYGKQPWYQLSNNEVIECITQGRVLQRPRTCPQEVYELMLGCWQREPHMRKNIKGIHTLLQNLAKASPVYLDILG
# Sequence of UniProt Q9H6Z9 (whole entry, looked up): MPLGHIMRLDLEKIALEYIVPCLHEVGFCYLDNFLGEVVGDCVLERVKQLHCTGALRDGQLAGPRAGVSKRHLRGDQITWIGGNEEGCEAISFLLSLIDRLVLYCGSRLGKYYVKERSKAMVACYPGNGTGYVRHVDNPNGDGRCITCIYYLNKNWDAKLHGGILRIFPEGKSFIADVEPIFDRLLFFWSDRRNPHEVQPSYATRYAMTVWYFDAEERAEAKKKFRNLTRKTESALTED
SMILES,tested on,assay,test system,setting,measurement,result
OC[C@H]1[C@@H](O)[C@H](O)[C@@H](O)CN1CCCCCOCc1ccccc1,Ugcg,"enzyme activity, inhibitor, fluorescence",,,IC50,200 nM
Cc1nn(-c2cccc(N)c2)c(=O)c2cnc(Nc3ccc(N4CCNCC4)cc3)nc12,"NTRK2 (Homo sapiens, UniProt Q16620)","enzyme activity, inhibitor",,,IC50,> 10000 nM
Cc1c(C(=O)Nc2ccc(S(=O)(=O)N(C)C3CCN(C)CC3)cc2)oc2c(Cl)cccc12,"RAD52 (Homo sapiens, UniProt P43351)",D-loop formation,,with: RAD52 450 nM,IC50,16200 ± 420 nM
C[C@H](OCCCCCN1C[C@H](O)[C@@H](O)[C@H](O)[C@H]1CO)c1ccc(-c2ccccc2)cc1,Ugcg,"enzyme activity, inhibitor, fluorescence",,,IC50,70 nM
CCc1ccc(NS(=O)(=O)c2c(C)[nH]c(C)c2C(=O)N2CCCC2)cc1,"DRD3 (Homo sapiens, UniProt P35462)","β-arrestin recruitment, antagonist",,,IC50,8600 nM
O=C(NCCO)c1ccc(C2CCCCC2)cc1,,liver microsome stability,mouse liver microsomes,1 µM,hepatic clearance,75 mL/min/kg
COCC1CN(C2CCN(c3cc(OC)c(Nc4ncc(Br)c(Nc5ccc6c(c5P(C)(C)=O)OCCO6)n4)cc3C)CC2)C1,"EGFR (Homo sapiens, UniProt P00533, L858R/T790M)","enzyme activity, inhibitor, TR-FRET",,,IC50,0.35 nM
CC(C)(C)OC(=O)N1CCN(c2ccc3c(O)c(C(=O)NCc4ccc(C#N)nc4)ncc3n2)CC1,"Prolyl hydroxylase EGLN3, PHD (EGLN3, Homo sapiens, UniProt Q9H6Z9)","enzyme activity, inhibitor",,,IC50,10.7 nM
CC(C)=CCC/C(C)=C/CC/C(C)=C/CN1C[C@@H](O)[C@H](O)[C@H](O)[C@@H]1CO,Ugcg,"enzyme activity, inhibitor, fluorescence",,,IC50,1940 nM
CCN(CC)CC(=O)Nc1cccc(-n2cc(-c3ccc4ccc(-c5cn(-c6cccc(NC(=O)CN(CC)CC)c6)nn5)cc4c3)nn2)c1,"LCK (Homo sapiens, UniProt P06239)","enzyme activity, inhibitor",,,IC50,> 10000 nM
O=C(NCCOc1ccc(F)cc1)c1ccc([C@H]2[C@@H](F)[C@@H](F)C[C@@H](F)[C@H]2F)cc1,,liver microsome stability,dog liver microsomes,1 µM,hepatic clearance,17 mL/min/kg
COc1cc(Cl)ccc1C1=CN(c2ccc(-c3ccccc3OC)cc2)C2=NCCCN12,"ALDH1B1 (Homo sapiens, UniProt P30837)","enzyme activity, inhibitor",,,IC50,16 nM
OC[C@@H]1[C@@H](O)[C@H](O)[C@@H](O)CN1CCCCCOCc1ccc(-c2ccc3c(c2)OCCO3)cc1,Ugcg,"enzyme activity, inhibitor, fluorescence",,,IC50,40 nM
CCn1nc(Cl)c2c1-c1cnc(N)c(c1)O[C@H](C)c1cc(F)ccc1-c1nn(C)cc1C2,"FES (Homo sapiens, UniProt P07332)","enzyme activity, inhibitor, radiometric",,,IC50,415 nM

# A few entries again:
SMILES,tested on,assay,test system,setting,measurement,result
CCN(CC)CC(=O)Nc1cccc(-n2cc(-c3ccc4ccc(-c5cn(-c6cccc(NC(=O)CN(CC)CC)c6)nn5)cc4c3)nn2)c1,"LCK (Homo sapiens, UniProt P06239)","enzyme activity, inhibitor",,,IC50,> 10000 nM
O=C(NCCOc1ccc(F)cc1)c1ccc([C@H]2[C@@H](F)[C@@H](F)C[C@@H](F)[C@H]2F)cc1,,liver microsome stability,dog liver microsomes,1 µM,hepatic clearance,17 mL/min/kg
